Measured values from different studies.
Lines come from different studies, so protocols differ. Values joined by “and” are separate records of one study, mostly repeats; a detail may differ. Numbers after ± are the reported error.

The MRT(0-last) of `O=C(NS(=O)(=O)c1cccs1)c1cc2ccccc2n1Cc1ccc(Br)c2ccccc12` is reported as 1 h (mouse, plasma; oral, 2 mg/kg).
`CN(C)c1ccc(C2CC(Nc3ccc(-c4ccc(NC5=NOC(c6ccc(N(C)C)cc6)C5)cc4)cc3)=NO2)cc1` (stereo not shown) gave a logP of 6.43 (shake flask UV/Vis; n-octanol/water).
`O=C(Nc1cnccc1-c1ccc([18F])cc1)c1ccnc(NC(=O)C2CC2)c1` gave an SUV of 0.19 (FVB/NJ mouse, both sexes, brain; intravenous, 30 min).
`C=CC(=O)N1CCCC(n2c(=O)c3ncccc3n(Cc3ccc(Oc4ccccc4)cc3)c2=O)C1` (stereo not shown) has a concentration of 9800 ng/mL (male BALB/c mouse, plasma; oral, 200 mg/kg, 5 min).
With `CN1CC(COc2cccc3c(NCc4ccco4)nc(Cl)nc23)OC1=O` (stereo not shown) the tissue/plasma ratio was 0.462 (C57BL/6 mouse, heart; oral, 30 mg/kg, 0.5 h; baseline: heart over plasma).
`Cc1cc(-c2ccc(C(=O)[C@@H]3CCCC[C@H]3C(=O)Nc3cnn4c3C(=O)NCC4)cc2)[nH]n1` — result for “cumulative radioactivity recovery”: 1.77% and 1.75% and 2.88% and 1.3% and 2.75% and 2.03% (human, urine; oral, 200 mg, 0-6 h; baseline: dose).
`CSCC[C@H](N)C(=O)N[C@@H](CO)C(=O)N[C@H](C(=O)N[C@@H](C)C(=O)NCC(=O)N[C@@H](CC(C)C)C(=O)N[C@@H](CCCCN)C(=O)N[C@@H](CCCCN)C(=O)N[C@@H](CCC(N)=O)C(=O)N[C@@H](Cc1c[nH]c2ccccc12)C(=O)N[C@@H](Cc1c[nH]cn1)C(=O)N[C@@H](CCCCN)C(=O)N[C@@H](C)C(=O)N[C@H](C(=O)N[C@@H](CCC(N)=O)C(=O)N[C@@H](CCCCN)C(=O)N[C@H](C(=O)N[C@@H](CO)C(=O)N[C@@H](CCC(=O)O)C(=O)N[C@@H](CCCCN)C(=O)N[C@H](C(=O)NCC(=O)NCC(=O)N[C@@H](C)C(N)=O)C(C)C)C(C)C)[C@@H](C)O)C(C)C` gave a helical content of 26% (circular dichroism; 25% DOPS/75% DOPC liposomes; 1 mM lipid).
`C/C(N)=N/C(=N\S(=O)(=O)c1ccc(C(F)(F)F)cc1)N1C[C@H](c2ccccc2)C(c2ccc(Cl)cc2)=N1` gave a tissue/plasma ratio of roughly 2 (C57BL/6 mouse, male, heart; intravenous, 10 mg/kg; baseline: heart over plasma).
`CNCc1ccc(-c2cc(=O)c3ccc4[nH]c(C(F)(F)F)nc4c3o2)cc1` gave an AUC of 2320 ng·h/mL (ICR mice, plasma; intravenous, 2 mg/kg).
`O=C(Nc1cnccc1-c1ccc([18F])nc1)c1ccnc(NC(=O)C2CC2)c1` gave an SUV of 0.076 (FVB/NJ mouse, both sexes, brain; intravenous, 25 min).
With `CCCCCCCCCCCCCCCC(=O)N[C@@H](CCCCN)C(=O)N[C@@H](CCCCN)C(=O)N[C@@H](CO)C(=O)N[C@@H](CCCNC(=N)N)C(=O)N[C@@H](C)C(=O)N[C@@H](CC(C)C)C(=O)N[C@@H](Cc1ccccc1)C(N)=O` the clearance was 130 mL/min (human patients, plasma; intravenous, 0.3 mg/kg over 2 h).
`COc1cccc(OC)c1-c1cc(C(=O)NC2(C(=O)O)C3CC4CC(C3)CC2C4)nn1-c1ccc(C(=O)N(C)CCOCCN(C)C(=O)[C@H](CCCCNC(=O)[C@H](CC(C)C)NC(=O)C2OC2C(=O)O)NC(=O)CN2CCN(CC(=O)[O-])CCN(CC(=O)[O-])CCN(CC(=O)[O-])CC2)cc1C(C)C.[177Lu+3]` (mixture of isomers) — result for “tumour-to-small intestine ratio”: 15.8 (mouse HT-29 xenograft; 24 h, biodistribution; baseline: tumour over small intestine).
Under “total absorbed dose”, `CN1C(=O)[C@@H](Cc2ccc(O)c(I)c2)NC(=O)CNC(=O)[C@H](Cc2ccc3ccccc3c2)NC(=O)[C@H](CCCNC(=N)N)NC(=O)[C@H]1CCCNC(=O)c1ccc(CNC(=O)CN2CCN(CC(=O)O)CCN(CC(=O)O)CCN(CC(=O)O)CC2)cc1` [lutetium-177 labelled] is recorded as 0.099 mGy/MBq (1; human, extrapolated from mouse, red marrow).
`C=C(NC(=O)c1csc(-c2nc3c(cc2O)-c2nc(cs2)C(=O)NC(C(C)O)C(=O)NC(=C(C)OC)c2nc(cs2)C(=O)NC2c4nc(cs4)C(=O)NC(COC(=O)c4c5c6c(cccc6n4O)COC(=O)C(OC4CC(C)(O)C(N(C)C)C(C)O4)C2OC5)c2nc-3cs2)n1)C(N)=O` (stereo not shown) has an AUC(0-last) of 8260 ± 1080 ng·h/mL (cynomolgus monkey, both sexes, plasma; intravenous infusion, 1 mg/kg single dose).
The plasma concentration of `C[C@]12C[C@H](c3ccc(S(C)(=O)=O)cc3)C3=C4CCC(=O)C=C4CC[C@H]3[C@@H]1CC[C@@]2(O)C(F)(F)C(F)(F)F` is reported as 4.05 ng/mL (item: compound (parent); healthy human volunteers, pooled plasma; oral, 5 mg daily, day 28, 96 h).
Under “free plasma concentration”, `CCn1nc(Cl)c2c1-c1cnc(N)c(c1)O[C@H](C)c1cc(F)ccc1-c1nn(C)cc1C2` is recorded as 1.23 nM (Balb/c nude mouse, female, plasma; 0.2 mg/kg twice daily for 5 days, 12 h).
`CCCCC/C=C\CCCO[Si](CCCCN(CC)CC)(OCCC/C=C\CCCCC)OCCC/C=C\CCCCC` has a zeta potential of 0.14 mV (pH 7.5, formulated).
`CC[C@H](C)[C@@H]1NC(=O)[C@H](Cc2ccc(O)cc2)NC(=O)CCCSC[C@@H](C(=O)N(CC(=O)N[C@@H](CC(C)C)C(=O)NCC(N)=O)Cc2ccc(F)cc2)NC(=O)[C@H](CC(N)=O)NC(=O)[C@H](CCC(N)=O)NC1=O` has an absolute bioavailability of 3.7% (human, plasma; intranasal, single dose; baseline: intravenous).
Under “tumour-to-small intestine ratio”, `COc1cccc(OC)c1-c1cc(C(=O)NC2(C(=O)O)C3CC4CC(C3)CC2C4)nn1-c1ccc(C(=O)N(C)CCCN(C)C(=O)[C@H](CCCCNC(=O)[C@H](CC(C)C)NC(=O)C2OC2C(=O)O)NC(=O)CN2CCN(CC(=O)[O-])CCN(CC(=O)[O-])CCN(CC(=O)[O-])CC2)cc1C(C)C.[177Lu+3]` (mixture of isomers) is recorded as 13.8 (mouse HT-29 xenograft; 4 h, biodistribution; baseline: tumour over small intestine).
`C=CC[C@@H]1/C=C(\C)C[C@H](C)C[C@H](OC)[C@H]2O[C@@](O)(C(=O)C(=O)N3CCCC[C@H]3C(=O)O[C@H](/C(C)=C/[C@@H]3CC[C@@H](O)[C@H](OC)C3)[C@H](C)[C@@H](O)CC1=O)[C@H](C)C[C@@H]2OC` gave a dose-normalized AUC(0-12h) of 136 ng·h/mL (kidney transplant recipients, whole blood; oral, dose not given, early phase, limited sampling).
For `CCC(=O)N(C)c1ccc(Cl)c(Cl)c1`, the plasma concentration was 246 ng/mL and 404 ng/mL (LC-MS/MS; mouse C57BL/6 female, plasma; subcutaneous, 2 mg/kg, 0.083 h).
`O=c1c(O)c(-c2ccc(N(c3ccccc3)c3ccccc3)cc2)oc2cc3ccccc3cc12`: “CO release quantum yield” roughly 0.6% (DMSO).
`CCCCCCCCCCCCCCCC(=O)N[C@@H](CCC(=O)NCCCC[C@H](NC(=O)[C@H](C)NC(=O)[C@H](C)NC(=O)[C@H](CCC(N)=O)NC(=O)CNC(=O)[C@H](CCC(=O)O)NC(=O)[C@H](CC(C)C)NC(=O)[C@H](Cc1ccc(O)cc1)NC(=O)[C@H](CO)NC(=O)[C@H](CO)NC(=O)[C@@H](NC(=O)[C@H](CC(=O)O)NC(=O)[C@H](CO)NC(=O)[C@@H](NC(=O)[C@H](Cc1ccccc1)NC(=O)[C@@H](NC(=O)CNC(=O)[C@H](CCC(=O)O)NC(=O)[C@H](C)NC(=O)[C@@H](N)Cc1cnc[nH]1)[C@@H](C)O)[C@@H](C)O)C(C)C)C(=O)N[C@@H](CCC(=O)O)C(=O)N[C@@H](Cc1ccccc1)C(=O)N[C@H](C(=O)N[C@@H](C)C(=O)N[C@@H](Cc1c[nH]c2ccccc12)C(=O)N[C@@H](CC(C)C)C(=O)N[C@H](C(=O)N[C@@H](CCCNC(=N)N)C(=O)NCC(=O)N[C@@H](CCCNC(=N)N)C(=O)NCC(=O)O)C(C)C)[C@@H](C)CC)C(=O)O` has an AST of 25 ± 3.3 U/L (obese diabetic cynomolgus monkey, serum; dose not given, day 43).
For `COc1cccc(OC)c1-c1cc(C(=O)NC2(C(=O)O)C3CC4CC(C3)CC2C4)nn1-c1ccc(C(=O)NCCNC(=O)[C@H](CCCCNC(=O)[C@H](CC(C)C)NC(=O)C2OC2C(=O)O)NC(=O)CN2CCN(CC(=O)[O-])CCN(CC(=O)[O-])CCN(CC(=O)[O-])CC2)cc1C(C)C.[177Lu+3]` (mixture of isomers), “tumour-to-large intestine ratio” read 14.2 (mouse HT-29 xenograft; 72 h, biodistribution; baseline: tumour over large intestine).
`C=CC(=O)Nc1cc(Nc2nccc(-c3c[nH]c4ccccc34)n2)c(OC)cc1N(C)CCN(C)C` gave a recovery of 55.3% (storage stability; human dried blood spot; 30 d, on ice, HQC level).

Repeated from above:
Under “total absorbed dose”, `CN1C(=O)[C@@H](Cc2ccc(O)c(I)c2)NC(=O)CNC(=O)[C@H](Cc2ccc3ccccc3c2)NC(=O)[C@H](CCCNC(=N)N)NC(=O)[C@H]1CCCNC(=O)c1ccc(CNC(=O)CN2CCN(CC(=O)O)CCN(CC(=O)O)CCN(CC(=O)O)CC2)cc1` [lutetium-177 labelled] is recorded as 0.099 mGy/MBq (1; human, extrapolated from mouse, red marrow).
`C=C(NC(=O)c1csc(-c2nc3c(cc2O)-c2nc(cs2)C(=O)NC(C(C)O)C(=O)NC(=C(C)OC)c2nc(cs2)C(=O)NC2c4nc(cs4)C(=O)NC(COC(=O)c4c5c6c(cccc6n4O)COC(=O)C(OC4CC(C)(O)C(N(C)C)C(C)O4)C2OC5)c2nc-3cs2)n1)C(N)=O` (stereo not shown) has an AUC(0-last) of 8260 ± 1080 ng·h/mL (cynomolgus monkey, both sexes, plasma; intravenous infusion, 1 mg/kg single dose).
The plasma concentration of `C[C@]12C[C@H](c3ccc(S(C)(=O)=O)cc3)C3=C4CCC(=O)C=C4CC[C@H]3[C@@H]1CC[C@@]2(O)C(F)(F)C(F)(F)F` is reported as 4.05 ng/mL (item: compound (parent); healthy human volunteers, pooled plasma; oral, 5 mg daily, day 28, 96 h).
Under “free plasma concentration”, `CCn1nc(Cl)c2c1-c1cnc(N)c(c1)O[C@H](C)c1cc(F)ccc1-c1nn(C)cc1C2` is recorded as 1.23 nM (Balb/c nude mouse, female, plasma; 0.2 mg/kg twice daily for 5 days, 12 h).
